Published values pooled from the literature.
A part holds a random share of what one study measured.
Sequence of UniProt Q9UM73 (whole entry, looked up): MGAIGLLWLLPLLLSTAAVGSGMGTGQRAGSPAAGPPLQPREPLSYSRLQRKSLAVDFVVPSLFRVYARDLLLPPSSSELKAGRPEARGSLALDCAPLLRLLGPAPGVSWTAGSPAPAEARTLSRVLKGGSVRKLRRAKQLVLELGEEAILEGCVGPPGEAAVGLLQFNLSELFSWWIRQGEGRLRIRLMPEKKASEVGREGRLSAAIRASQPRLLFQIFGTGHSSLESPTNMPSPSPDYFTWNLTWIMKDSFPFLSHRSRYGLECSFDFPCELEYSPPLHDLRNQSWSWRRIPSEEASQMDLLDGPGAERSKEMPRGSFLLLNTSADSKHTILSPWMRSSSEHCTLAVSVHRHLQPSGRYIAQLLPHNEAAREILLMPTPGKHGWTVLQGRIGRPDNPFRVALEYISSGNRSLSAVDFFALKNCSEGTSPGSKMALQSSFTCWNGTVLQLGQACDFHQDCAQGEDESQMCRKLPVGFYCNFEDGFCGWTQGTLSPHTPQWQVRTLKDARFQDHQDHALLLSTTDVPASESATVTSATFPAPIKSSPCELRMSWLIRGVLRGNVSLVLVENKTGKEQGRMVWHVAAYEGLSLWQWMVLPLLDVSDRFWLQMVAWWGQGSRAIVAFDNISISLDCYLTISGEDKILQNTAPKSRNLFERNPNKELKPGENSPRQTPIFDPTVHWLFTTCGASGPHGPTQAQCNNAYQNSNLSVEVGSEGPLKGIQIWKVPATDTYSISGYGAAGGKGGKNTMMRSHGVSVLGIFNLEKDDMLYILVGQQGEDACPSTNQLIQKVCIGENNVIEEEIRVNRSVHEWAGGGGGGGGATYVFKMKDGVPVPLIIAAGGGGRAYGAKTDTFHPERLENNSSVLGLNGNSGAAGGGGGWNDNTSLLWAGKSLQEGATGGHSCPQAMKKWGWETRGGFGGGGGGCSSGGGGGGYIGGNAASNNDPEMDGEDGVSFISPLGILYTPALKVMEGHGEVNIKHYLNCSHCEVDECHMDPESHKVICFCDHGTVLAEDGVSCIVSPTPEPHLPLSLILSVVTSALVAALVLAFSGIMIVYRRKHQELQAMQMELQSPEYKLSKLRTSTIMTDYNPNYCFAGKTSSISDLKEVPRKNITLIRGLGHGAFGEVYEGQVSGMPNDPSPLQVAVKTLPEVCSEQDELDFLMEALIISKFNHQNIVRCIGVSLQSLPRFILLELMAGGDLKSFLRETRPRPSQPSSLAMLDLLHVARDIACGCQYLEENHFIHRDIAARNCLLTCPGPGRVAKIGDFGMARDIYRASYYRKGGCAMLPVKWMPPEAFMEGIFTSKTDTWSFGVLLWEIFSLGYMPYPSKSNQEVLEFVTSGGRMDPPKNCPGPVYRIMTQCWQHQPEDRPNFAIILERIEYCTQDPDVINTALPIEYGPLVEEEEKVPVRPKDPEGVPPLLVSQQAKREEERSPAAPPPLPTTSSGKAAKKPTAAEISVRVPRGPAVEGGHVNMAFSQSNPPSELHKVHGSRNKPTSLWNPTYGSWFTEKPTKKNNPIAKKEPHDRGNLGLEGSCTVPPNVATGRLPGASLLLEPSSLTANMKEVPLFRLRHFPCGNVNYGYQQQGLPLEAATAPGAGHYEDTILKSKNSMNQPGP
Sequence of UniProt P49336 (whole entry, looked up): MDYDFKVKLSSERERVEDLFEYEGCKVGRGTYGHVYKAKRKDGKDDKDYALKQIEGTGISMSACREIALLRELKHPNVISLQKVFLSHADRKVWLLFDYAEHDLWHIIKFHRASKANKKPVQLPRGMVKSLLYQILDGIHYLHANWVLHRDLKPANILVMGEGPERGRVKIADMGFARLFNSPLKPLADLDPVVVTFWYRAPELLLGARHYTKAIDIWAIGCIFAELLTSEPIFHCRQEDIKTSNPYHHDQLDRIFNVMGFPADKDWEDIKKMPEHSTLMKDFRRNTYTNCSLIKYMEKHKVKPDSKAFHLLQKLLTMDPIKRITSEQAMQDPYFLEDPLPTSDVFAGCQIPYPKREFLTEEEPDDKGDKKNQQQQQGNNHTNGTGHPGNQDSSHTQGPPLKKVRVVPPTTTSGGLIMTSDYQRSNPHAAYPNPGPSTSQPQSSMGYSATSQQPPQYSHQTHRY
Sequence of UniProt P10721 (whole entry, unmodified, looked up): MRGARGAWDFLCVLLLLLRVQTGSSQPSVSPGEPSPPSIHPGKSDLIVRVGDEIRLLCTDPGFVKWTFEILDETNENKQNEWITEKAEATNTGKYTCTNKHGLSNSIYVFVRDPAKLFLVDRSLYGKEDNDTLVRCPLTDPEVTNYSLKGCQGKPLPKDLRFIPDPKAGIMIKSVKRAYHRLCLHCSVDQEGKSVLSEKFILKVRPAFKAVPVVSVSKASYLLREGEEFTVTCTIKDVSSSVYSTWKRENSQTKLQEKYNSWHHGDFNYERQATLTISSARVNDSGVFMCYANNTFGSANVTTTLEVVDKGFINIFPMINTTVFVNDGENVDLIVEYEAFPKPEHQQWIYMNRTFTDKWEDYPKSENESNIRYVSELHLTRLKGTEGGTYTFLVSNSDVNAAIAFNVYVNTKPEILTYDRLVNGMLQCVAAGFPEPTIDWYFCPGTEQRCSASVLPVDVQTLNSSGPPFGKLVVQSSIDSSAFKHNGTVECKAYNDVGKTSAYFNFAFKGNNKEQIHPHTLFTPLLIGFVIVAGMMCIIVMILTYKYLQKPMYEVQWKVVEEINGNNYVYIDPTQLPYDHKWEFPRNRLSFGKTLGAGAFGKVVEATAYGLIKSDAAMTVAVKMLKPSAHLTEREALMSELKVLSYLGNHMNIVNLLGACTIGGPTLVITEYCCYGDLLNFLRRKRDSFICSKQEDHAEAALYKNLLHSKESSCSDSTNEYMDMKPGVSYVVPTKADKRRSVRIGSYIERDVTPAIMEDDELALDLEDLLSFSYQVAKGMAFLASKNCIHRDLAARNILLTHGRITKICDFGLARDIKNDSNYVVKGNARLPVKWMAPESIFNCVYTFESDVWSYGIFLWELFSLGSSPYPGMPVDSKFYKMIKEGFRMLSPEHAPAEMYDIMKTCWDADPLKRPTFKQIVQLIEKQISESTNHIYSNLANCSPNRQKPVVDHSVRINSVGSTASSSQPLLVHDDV
Sequence of UniProt Q8NEB9 (whole entry, looked up): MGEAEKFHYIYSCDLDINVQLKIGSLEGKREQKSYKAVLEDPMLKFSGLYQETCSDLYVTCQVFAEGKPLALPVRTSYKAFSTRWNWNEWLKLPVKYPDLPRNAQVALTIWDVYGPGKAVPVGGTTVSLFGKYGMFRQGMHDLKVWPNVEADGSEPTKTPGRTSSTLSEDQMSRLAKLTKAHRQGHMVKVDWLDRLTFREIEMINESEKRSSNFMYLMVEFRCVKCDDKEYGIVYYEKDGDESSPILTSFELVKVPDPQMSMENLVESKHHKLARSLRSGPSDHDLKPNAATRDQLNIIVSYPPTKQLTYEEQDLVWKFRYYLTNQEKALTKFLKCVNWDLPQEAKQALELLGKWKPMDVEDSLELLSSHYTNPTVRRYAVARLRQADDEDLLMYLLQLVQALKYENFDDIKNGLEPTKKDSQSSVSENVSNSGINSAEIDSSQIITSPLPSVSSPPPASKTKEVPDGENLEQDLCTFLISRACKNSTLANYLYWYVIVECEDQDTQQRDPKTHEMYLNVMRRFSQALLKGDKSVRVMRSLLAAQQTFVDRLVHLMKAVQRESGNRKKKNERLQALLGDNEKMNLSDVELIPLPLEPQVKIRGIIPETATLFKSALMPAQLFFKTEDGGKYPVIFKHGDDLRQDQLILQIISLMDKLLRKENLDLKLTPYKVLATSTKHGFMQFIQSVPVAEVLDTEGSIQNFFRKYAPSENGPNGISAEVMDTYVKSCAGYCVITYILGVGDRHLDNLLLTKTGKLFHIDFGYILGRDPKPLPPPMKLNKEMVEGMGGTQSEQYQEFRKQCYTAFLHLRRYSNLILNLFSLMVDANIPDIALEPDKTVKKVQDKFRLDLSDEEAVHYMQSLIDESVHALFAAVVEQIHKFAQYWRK
Sequence of UniProt Q9UQM7 (whole entry, looked up): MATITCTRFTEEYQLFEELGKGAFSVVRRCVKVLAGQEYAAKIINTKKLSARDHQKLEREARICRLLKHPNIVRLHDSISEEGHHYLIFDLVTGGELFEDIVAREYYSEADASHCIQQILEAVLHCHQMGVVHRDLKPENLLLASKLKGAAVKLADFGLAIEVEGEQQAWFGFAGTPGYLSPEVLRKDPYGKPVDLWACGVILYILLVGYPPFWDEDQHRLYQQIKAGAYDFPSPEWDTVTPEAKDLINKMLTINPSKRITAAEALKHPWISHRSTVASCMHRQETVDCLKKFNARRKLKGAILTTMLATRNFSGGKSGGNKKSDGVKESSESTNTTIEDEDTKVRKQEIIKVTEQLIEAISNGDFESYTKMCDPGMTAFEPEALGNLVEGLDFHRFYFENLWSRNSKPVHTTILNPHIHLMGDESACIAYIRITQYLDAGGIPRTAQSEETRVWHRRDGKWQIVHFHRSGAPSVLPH

Block 1
SMILES: COCCOc1nc(-c2ccc(Cl)nc2)nc2c1CN(C(=O)c1ncn3ccccc13)CC2
Effect on: cell-free assay
Method: competition with immobilised ligand
Tested at: 0.1 µM
It gave 100% for remaining binding (Receptor-type tyrosine-protein kinase FLT3 (FLT3, Homo sapiens, UniProt P36888, N841I)).
The remaining binding was 91% (ALK tyrosine kinase receptor (ALK, Homo sapiens, UniProt Q9UM73)).
The remaining binding was 100% (Cyclin-dependent kinase-like 5 (CDKL5, Homo sapiens, UniProt O76039)).
The remaining binding was 68% (Mast/stem cell growth factor receptor Kit (KIT, Homo sapiens, UniProt P10721, D816H)).
It gave 100% for remaining binding (Phosphatidylinositol 3-kinase catalytic subunit type 3 (PIK3C3, Homo sapiens, UniProt Q8NEB9)).
The remaining binding was 100% (Cyclin-dependent kinase 8 (CDK8, Homo sapiens, UniProt P49336)).
Calcium/calmodulin-dependent protein kinase type II subunit alpha (CAMK2A, Homo sapiens, UniProt Q9UQM7) — remaining binding: 100%.

Block 2
Species: human
Medium: microsomes or S9
Tested at: 2 µM
Time: 0.5 h
The remaining compound of `CCOc1ccc(CCNCc2c(C(=O)O)c(C)n(-c3ccccc3)c2C)cc1OCC` is reported as 76.3%.
For `COc1c(Br)ccc2c1sc1ncnc(NC(C)C(=O)O)c12` (centres unmarked), the remaining compound was 39.9%.
With `O=C(NCc1ccncc1)c1cc(-c2ccc(Br)s2)n[nH]1` the remaining compound was 96.3%.
The remaining compound of `CC(NCc1csc(Br)c1)c1cc2ccccc2o1` (centres unmarked) is reported as 1.3%.
`Fc1ccc(Nc2c(-c3ccccc3)nc3ccccn23)cc1` gave a remaining compound of 70.3%.
For `O=C(Nc1n[nH]c2cc(Br)ccc12)c1[nH]nc2c1CCCC2`, the remaining compound was 0.0238%.
With `O=C(NC1CCc2ccccc21)c1nnn(-c2ccccc2Cl)c1-c1ccncc1` (centres unmarked) the remaining compound was 3.4%.

Block 3
Target: Tyrosine-protein kinase Lyn, isoform B (LYN, Homo sapiens, UniProt P07948)
Sequence of UniProt P07948 (whole entry, looked up): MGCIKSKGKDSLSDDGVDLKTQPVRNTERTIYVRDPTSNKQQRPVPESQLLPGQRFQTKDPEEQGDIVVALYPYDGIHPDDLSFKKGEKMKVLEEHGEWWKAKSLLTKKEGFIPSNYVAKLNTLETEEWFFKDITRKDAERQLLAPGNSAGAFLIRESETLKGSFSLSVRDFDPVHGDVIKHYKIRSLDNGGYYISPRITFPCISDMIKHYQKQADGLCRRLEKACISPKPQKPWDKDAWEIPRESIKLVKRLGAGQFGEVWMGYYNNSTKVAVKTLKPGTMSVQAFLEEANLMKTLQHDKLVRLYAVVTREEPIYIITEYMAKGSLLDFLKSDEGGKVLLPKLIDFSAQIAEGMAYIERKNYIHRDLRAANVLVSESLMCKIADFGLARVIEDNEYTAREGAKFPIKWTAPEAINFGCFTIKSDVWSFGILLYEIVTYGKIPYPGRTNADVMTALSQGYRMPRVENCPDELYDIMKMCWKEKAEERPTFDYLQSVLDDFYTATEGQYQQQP
Effect on: enzyme activity
Mode: inhibitor
Tested at: 0.5 µM
Relative to: control
`Cn1c2ccccc2c2c3c(c4c5ccccc5n(CCC#N)c4c21)CNC3=O` has a remaining activity of 90.3%.
With `Cc1cccc(-c2[nH]c(C(C)(C)C)nc2-c2ccc3c(c2)OCO3)n1` the remaining activity was 82.8%.
For `Oc1ccc(-c2nc(-c3ccncc3)c(-c3ccc(F)cc3)[nH]2)cc1`, the remaining activity was 98.4%.
The remaining activity of `CO[C@H]1C[C@@H]2CC[C@@H](C)[C@@](O)(O2)C(=O)C(=O)N2CCCC[C@H]2C(=O)O[C@H]([C@H](C)C[C@@H]2CC[C@@H](O)[C@H](OC)C2)CC(=O)[C@H](C)/C=C(\C)[C@@H](O)[C@@H](OC)C(=O)[C@H](C)C[C@H](C)/C=C/C=C/C=C/1C` is reported as 105%.
For `Cc1ccc(NC(=O)c2ccc(CN3CCN(C)CC3)cc2)cc1Nc1nc(-c2cccnc2)cs1`, the remaining activity was 18.7%.
For `O=C(Nc1cccc(Nc2cc(Nc3cccc(C(F)(F)F)c3)ncn2)c1)C1CC1`, the remaining activity was 99.1%.
`Cn1sc(=O)n(Cc2ccccc2)c1=O` has a remaining activity of 98.9%.
With `Nc1ncnc2n[nH]c(Nc3ccc(F)cc3)c12` the remaining activity was 90.3%.
`O=c1c2ccccc2[nH]c(=S)n1CCN1CCC(=C(c2ccc(F)cc2)c2ccc(F)cc2)CC1` has a remaining activity of 105%.
The remaining activity of `Nc1[nH]nc2nc3ccccc3nc12` is reported as 108%.
The remaining activity of `C#Cc1cccc(Nc2ncnc3cc(OCCOC)c(OCCOC)cc23)c1` is reported as 75.4%.
`O=C1NC(=O)c2cc(Nc3ccc(F)cc3)c(Nc3ccc(F)cc3)cc21` has a remaining activity of 97.8%.
For `COc1ccc(CNC(=O)Nc2ncc([N+](=O)[O-])s2)cc1`, the remaining activity was 97.7%.
`COc1ccc(C(=O)Nc2sc3c(c2C(N)=O)CCCC3)cc1OC` gave a remaining activity of 95.9%.
`CCOC(=O)c1c(C)[nH]c(/C=C2\C(=O)Nc3ccccc32)c1C` has a remaining activity of 98.4%.
The remaining activity of `O=C(O)c1ccc2c3c1cccc3c(=O)n1c3ccccc3nc21` is reported as 99.4%.
The remaining activity of `COc1ccc(OC)c2c(=S)c3ccccc3[nH]c12` is reported as 96.9%.

Block 4
Effect on: AlphaScreen signal
Method: AlphaScreen counter screen
Medium: His6 peptide without bromodomain
Tested at: 50 µM
Notes: assay interference check
`Nc1nc(Nc2ccccc2)sc1C(=O)c1ccc(F)cc1` gave an inhibition of 63.4%.
`O=C(Nc1cc(Cl)cc2c1[nH]c1cnccc12)c1cccnc1` gave an inhibition of 22.9%.
`CCN(CC)c1ccc(Nc2nc(-c3c(C)nc4ccccn34)cs2)cc1` has an inhibition of 96.8%.
With `Cc1ccc([N+](=O)[O-])cc1S(=O)(=O)N(C)N=Cc1cnc2ccc(Br)cn12` the inhibition was 57%.

A few entries again (block 4):
`Nc1nc(Nc2ccccc2)sc1C(=O)c1ccc(F)cc1` gave an inhibition of 63.4%.
`O=C(Nc1cc(Cl)cc2c1[nH]c1cnccc12)c1cccnc1` gave an inhibition of 22.9%.
`CCN(CC)c1ccc(Nc2nc(-c3c(C)nc4ccccn34)cs2)cc1` has an inhibition of 96.8%.
With `Cc1ccc([N+](=O)[O-])cc1S(=O)(=O)N(C)N=Cc1cnc2ccc(Br)cn12` the inhibition was 57%.
